{"data": "Measured values from different studies", "U2AF2": "U2AF2 148-342 (Homo sapiens, UniProt P26368)", "PHO4": "PHO4 1-312 (Saccharomyces cerevisiae, UniProt P07270)", "SPT15 full length assumed": "SPT15 full length assumed (Saccharomyces cerevisiae, UniProt P13393)", "TGM2": "TGM2 2-687 (Homo sapiens, UniProt P21980)", "note": "Lines come from different studies, so protocols differ. ± gives the spread as reported.", "sequence of UniProt P13393 (whole entry, looked up)": "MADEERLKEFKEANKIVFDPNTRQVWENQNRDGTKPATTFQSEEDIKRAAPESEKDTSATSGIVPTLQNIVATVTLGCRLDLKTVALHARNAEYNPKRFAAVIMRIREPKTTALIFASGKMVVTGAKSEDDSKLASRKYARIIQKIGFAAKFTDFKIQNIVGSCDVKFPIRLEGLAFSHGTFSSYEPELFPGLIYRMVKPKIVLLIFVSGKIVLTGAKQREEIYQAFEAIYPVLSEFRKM", "sequence of UniProt P07270 (whole entry, looked up)": "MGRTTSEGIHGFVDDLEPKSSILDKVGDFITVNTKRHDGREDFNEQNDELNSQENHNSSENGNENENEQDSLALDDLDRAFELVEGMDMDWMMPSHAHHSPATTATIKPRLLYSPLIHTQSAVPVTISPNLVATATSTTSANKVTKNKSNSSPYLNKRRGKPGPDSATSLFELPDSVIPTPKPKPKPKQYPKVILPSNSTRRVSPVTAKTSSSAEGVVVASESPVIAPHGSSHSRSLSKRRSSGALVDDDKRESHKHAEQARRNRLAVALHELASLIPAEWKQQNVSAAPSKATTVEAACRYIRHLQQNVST", "sequence of UniProt P26368 (whole entry, looked up)": "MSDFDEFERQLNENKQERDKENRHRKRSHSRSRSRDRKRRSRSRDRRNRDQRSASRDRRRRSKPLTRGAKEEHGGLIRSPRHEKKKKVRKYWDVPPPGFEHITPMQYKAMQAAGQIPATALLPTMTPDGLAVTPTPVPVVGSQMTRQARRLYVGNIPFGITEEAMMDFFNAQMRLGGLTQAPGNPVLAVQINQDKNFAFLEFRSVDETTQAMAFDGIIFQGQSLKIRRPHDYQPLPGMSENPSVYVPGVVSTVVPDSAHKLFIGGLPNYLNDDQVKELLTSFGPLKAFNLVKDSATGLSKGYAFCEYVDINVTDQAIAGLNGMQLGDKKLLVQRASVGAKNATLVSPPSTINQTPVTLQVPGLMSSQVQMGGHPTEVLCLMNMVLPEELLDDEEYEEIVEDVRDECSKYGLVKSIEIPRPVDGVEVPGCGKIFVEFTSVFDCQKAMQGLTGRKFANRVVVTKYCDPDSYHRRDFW", "sequence of UniProt P21980 (whole entry, looked up)": "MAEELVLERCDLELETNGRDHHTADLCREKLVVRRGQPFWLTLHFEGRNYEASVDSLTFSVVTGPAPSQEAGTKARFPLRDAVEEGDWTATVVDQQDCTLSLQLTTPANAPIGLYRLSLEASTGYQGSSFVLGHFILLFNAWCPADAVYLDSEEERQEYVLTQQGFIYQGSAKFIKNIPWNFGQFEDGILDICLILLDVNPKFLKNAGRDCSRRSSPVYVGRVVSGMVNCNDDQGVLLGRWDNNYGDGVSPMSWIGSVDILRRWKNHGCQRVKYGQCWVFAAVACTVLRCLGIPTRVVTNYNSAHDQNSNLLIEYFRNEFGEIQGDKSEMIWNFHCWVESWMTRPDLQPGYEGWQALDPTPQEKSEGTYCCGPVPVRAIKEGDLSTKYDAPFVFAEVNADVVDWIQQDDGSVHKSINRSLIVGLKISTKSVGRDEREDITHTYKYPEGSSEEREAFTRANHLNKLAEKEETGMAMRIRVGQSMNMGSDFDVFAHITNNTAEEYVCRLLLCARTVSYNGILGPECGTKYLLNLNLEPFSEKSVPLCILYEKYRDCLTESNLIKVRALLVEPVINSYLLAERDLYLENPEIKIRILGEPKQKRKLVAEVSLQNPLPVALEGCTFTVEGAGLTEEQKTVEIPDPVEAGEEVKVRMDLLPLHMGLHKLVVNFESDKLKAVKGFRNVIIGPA", "sequence of UniProt P07676 (whole entry, unmodified, looked up)": "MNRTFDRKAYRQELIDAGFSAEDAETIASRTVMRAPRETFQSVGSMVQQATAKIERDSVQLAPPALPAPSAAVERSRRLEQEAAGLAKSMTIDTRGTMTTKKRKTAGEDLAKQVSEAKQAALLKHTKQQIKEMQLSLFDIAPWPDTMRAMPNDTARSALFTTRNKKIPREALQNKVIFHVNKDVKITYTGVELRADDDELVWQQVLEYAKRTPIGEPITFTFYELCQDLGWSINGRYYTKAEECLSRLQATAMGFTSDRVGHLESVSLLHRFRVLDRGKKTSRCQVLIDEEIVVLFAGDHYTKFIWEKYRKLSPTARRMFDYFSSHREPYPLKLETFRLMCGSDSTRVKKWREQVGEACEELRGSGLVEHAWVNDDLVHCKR"}
{"Oligonucleotide": "AUCUUUAGU (ssRNA)", "target": "U2AF2", "test": "sequencing of bound RNA", "system": "RNA", "conditions": "motif only", "measurement": "Kd", "result": "7.64 µM"}
{"Oligonucleotide": "CAATACACTGTTATCAGAAACACGTGTCGAGCTACTCGTTCGGTTATCCGGCGGTATGAC (dsDNA)", "target": "PHO4", "test": "MITOMI", "system": "double-stranded DNA, one strand shown", "conditions": "not purified", "measurement": "Kd", "result": "0.12 ± 0.003 µM"}
{"Oligonucleotide": "TAAATATTCTTTCCTTATACATTAGGACCTTTGCATCAAGTCAATCGGTCC (dsDNA; 5'-amino-C6 primer)", "target": "SPT15 full length assumed", "test": "array", "system": "double-stranded DNA, one strand shown", "conditions": "TBP alone", "measurement": "Kd", "result": "0.0192 ± 0.00176 µM"}
{"Oligonucleotide": "CCTGCGGTATTGACACTTGAGGGGCGCGACTACTGACAGATGAGGGGCGCGATCCTTGACACTTGAGGGGCAGAGTGATGACAGATGAGGGGCGCACCTATTGACATTTGAGGGGCTGTCCACAGGCAG (dsDNA)", "target": "trfA 98-382 G254D/S267L/R327E (Escherichia coli, UniProt P07676)", "test": "SPR", "system": "double-stranded DNA, one strand shown", "measurement": "Kd", "result": "0.00203 µM"}
{"Oligonucleotide": "ACCAGCCCATATAAATGTCACTGTGCCTCTAACTCTCAAGTCAATCGGTCC (dsDNA; 5'-amino-C6 primer)", "target": "SPT15 full length assumed", "test": "array", "system": "double-stranded DNA, one strand shown", "conditions": "TBP alone", "measurement": "Kd", "result": "0.00213 ± 0.00014 µM"}
{"Oligonucleotide": "GGGAGCAGGAGAGAGGUCAGAUGAUACGAGAGAUGUAACCCGUCCUGCAAUCACCUAUGCGUGCUAGUGUGA (ssRNA; 2'-fluoro pyrimidines)", "target": "TGM2", "test": "SPR", "system": "RNA", "conditions": "added: MgCl2 5 mM", "how to read": "higher = more binding", "measurement": "relative binding", "result": "46.2 RU"}
{"Oligonucleotide": "DNA 1 CTAATATACACGGATACAAAAGAAATACACATAATTCAATTCAATCGGTCC / DNA 2 GGACCGATTGACTTGAATTATGTGTATTTCTTTTGTATCCGTGTATATTAG (dsDNA; blunt; C:T mismatch; 5'-amino-C6 primer)", "target": "SPT15 full length assumed", "test": "array", "system": "double-stranded DNA", "conditions": "TBP alone", "measurement": "Kd", "result": "0.021 ± 0.002 µM"}
{"Oligonucleotide": "CAATACACTGTTATCAGACACACGTGACGAGCTACTCGTTCGGTTATCCGGCGGTATGAC (dsDNA)", "target": "PHO4", "test": "MITOMI", "system": "double-stranded DNA, one strand shown", "conditions": "not purified", "measurement": "Kd", "result": "0.162 ± 0.004 µM"}
{"Oligonucleotide": "UUCGUUUUU (ssRNA)", "target": "U2AF2", "test": "sequencing of bound RNA", "system": "RNA", "conditions": "motif only", "measurement": "Kd", "result": "1.89 µM"}
{"Oligonucleotide": "GGGAGCAGGAGAGAGGUCAGAUGACACACGAGAGAUGUUGCCUGCUACCCGCACCUAUGCGUGCUAGUGUGA (ssRNA; 2'-fluoro pyrimidines)", "target": "TGM2", "test": "SPR", "system": "RNA", "conditions": "added: MgCl2 5 mM", "how to read": "higher = more binding", "measurement": "relative binding", "result": "0.7 RU"}
{"Oligonucleotide": "CAATACACTGTTATCAGACCCACGTGTCGAGCTACTCGTTCGGTTATCCGGCGGTATGAC (dsDNA)", "target": "PHO4", "test": "MITOMI", "system": "double-stranded DNA, one strand shown", "conditions": "not purified", "measurement": "Kd", "result": "0.061 ± 0.001 µM"}
{"Oligonucleotide": "AUUCUGAUU (ssRNA)", "target": "U2AF2", "test": "sequencing of bound RNA", "system": "RNA", "conditions": "motif only", "measurement": "Kd", "result": "12.1 µM"}
{"note": "For quick reference, copied from above:"}
{"Oligonucleotide": "DNA 1 CTAATATACACGGATACAAAAGAAATACACATAATTCAATTCAATCGGTCC / DNA 2 GGACCGATTGACTTGAATTATGTGTATTTCTTTTGTATCCGTGTATATTAG (dsDNA; blunt; C:T mismatch; 5'-amino-C6 primer)", "target": "SPT15 full length assumed", "test": "array", "system": "double-stranded DNA", "conditions": "TBP alone", "measurement": "Kd", "result": "0.021 ± 0.002 µM"}
